Published values gathered from unrelated publications.
Protocols differ between the studies behind these lines. Numbers after ± are the reported error.

COCCOCCOCCOCCOCCOCCOCCNC(=O)CCC1(CCC(=O)NCCOCCOCCOCCOCCOCCOCCOC)c2ccccc2-c2ccc(-c3sc(-c4c5c(c(-c6sc(-c7ccc8c(c7)C(CCC(=O)NCCOCCOCCOCCOCCOCCOCCOC)(CCC(=O)NCCOCCOCCOCCOCCOCCOCCOC)c7ccccc7-8)c7c6OCCO7)c6nsnc46)N=S=N5)c4c3OCCO4)cc21 — maximum liver to leg ratio (NIR-II imaging; KM mouse, female; iv, dose not given, 5 to 240 min): ~10
N=C(N)NCCC[C@@H]1NC(=O)[C@H](Cc2c[nH]c3ccccc23)NC(=O)[C@@H](CC2CCCCC2)NC(=O)[C@@H]2CCCN2C(=O)[C@@H](NC(=O)CCc2ccccc2)CCCNC1=O — elimination half-life (C57BL/6J mice, plasma; subcutaneous, 1 mg/kg): 0.332 h
CC(C)C[C@H](NC(=O)C[C@H](O)[C@H](CC(C)C)NC(=O)[C@H](Cc1c[nH]cn1)NC(=O)CNC(=O)[C@@H](NC(=O)[C@H](C)NC(=O)[C@H](Cc1c[nH]c2ccccc12)NC(=O)[C@H](CCC(N)=O)NC(=O)[C@@H](Cc1ccccc1)NC(=O)CCNC(=O)CCNC(=O)CN1CCN(CC(=O)O)CCN(CC(=O)O)CCN(CC(=O)O)CC1)C(C)C)C(N)=O [lutetium-177 labelled] — tumour absorbed dose (MIRD dosimetry; mouse, PC-3 xenograft; intraperitoneal, 50 MBq): 11 Gy
CCOc1ccc2c(c1)C(C)=CC(C)(C)N2c1cc(OCC)cc2c1NC(C)(C)C=C2C — tissue residue (LC-MS/MS; laying hens, liver; oral in feed, 50 mg/kg feed ethoxyquin, 56 days, after glucuronidase treatment): 3 ± 1.6 ng/g
OCc1cn(Cc2ccc(-c3noc(-c4ccc(OCC[18F])c(C(F)(F)F)c4)n3)cc2)nn1 — tracer uptake (rat, liver; intravenous, 30 min): 4.3 %ID/g
COc1ccc([C@@H]2CC(=O)c3c(O)cc(O[C@@H]4O[C@H](CO[C@@H]5O[C@@H](C)[C@H](O)[C@@H](O)[C@H]5O)[C@@H](O)[C@H](O)[C@H]4O)cc3O2)cc1O — relative error (rat plasma; 31.25 ng/mL, 12 h, room temperature, autosampler stability; baseline: nominal concentration): -3.99%
CCC1CC2C(C)=CC3C(=O)CCCC3C=CC(C)=CC2C(=O)O1 (stereo not drawn) — concentration (male ICR mice, brain; oral, 30 mg/kg, 30 min): 3 ± 3.2 ng/g
Oc1ccc2ccccc2c1/N=N/c1ccc(/N=N/c2ccccc2)cc1 — measured concentration (rat whole blood QC samples; 5.0 µg/L, 12 h, room temperature, short-term stability): 5.22 µg/L
CC[C@@H](C)[C@H]1NC(=O)[C@@H]([C@H](C)O)NC(=O)[C@@H](Cc2c[nH]cn2)NC(=O)CNC(=O)[C@@H](CCCNC(=N)N)NC(=O)CNC(=O)[C@@H](Cc2ccccc2)NC1=O — retina concentration (rat, retina; eye drop, 0.5% single, 3 h): 32.8 µg/g protein
COCC1CN(C2CCN(c3cc(OC)c(Nc4ncc(Br)c(Nc5ccc6c(c5P(C)(C)=O)OCCO6)n4)cc3C)CC2)C1 — treatment-related LDH increased, all grades (human patients; oral, 10 to 240 mg once daily): 11.1%
Cc1ccc(OCC(=O)Nc2cc[nH]n2)cc1 — relative peak area (LC-MS EIC; human liver microsomes, pooled, both sexes; 10 µM, 60 min; baseline: reference compound at start): 8.68%
CCCC[C@H](NC(=O)CNC(=O)CNC(=O)CN1CCN(CC(=O)O)CCN(CC(=O)O)CC1)C(=O)N[C@H]1CC(=O)NCCCC[C@@H](C(N)=O)NC(=O)[C@H](Cc2c[nH]c3ccccc23)NC(=O)[C@H](CCCNC(=N)N)NC(=O)[C@@H](Cc2ccccc2)NC(=O)[C@H](Cc2c[nH]cn2)NC1=O [copper-64 labelled] — urinary excretion (C57 mouse female B16/F1 melanoma, urine; intravenous, 0.037 MBq, 0.5 h): 76.8 ± 1.19%
CCCC[C@@H]1NC(=O)[C@@H](NC(=O)[C@H](CCC(=O)O)NC(=O)CNC(=O)CN2CCN(CC(=O)O)CCN(CC(=O)O)CCN(CC(=O)O)CC2)CCCCNC(=O)C[C@@H](C(N)=O)NC(=O)[C@H](C(C)C)NC(=O)[C@@H]2CCCN2C(=O)[C@H](CCCNC(=N)N)NC(=O)CNC(=O)[C@H](Cc2c[nH]c3ccccc23)NC(=O)[C@H](CCCNC(=N)N)NC(=O)[C@@H](Cc2ccccc2)NC(=O)[C@H](Cc2c[nH]cn2)NC(=O)[C@H](CCC(=O)O)NC1=O [gallium-67 labelled] — urine excretion (C57 mice, B16/F1 flank melanoma; intravenous, 0.037 MBq, 24 h): 88.6 ± 6.78%
CN1C(=O)[C@@H](Cc2ccc(O)c(I)c2)NC(=O)CNC(=O)[C@H](Cc2ccc3ccccc3c2)NC(=O)[C@H](CCCNC(=N)N)NC(=O)[C@H]1CCCNC(=O)c1ccc(CNC(=O)CN2CCN(CC(=O)O)CCN(CC(=O)O)CCN(CC(=O)O)CC2)cc1 [lutetium-177 labelled] — total absorbed dose (1; human, extrapolated from mouse, liver): 0.95 mGy/MBq
COc1cccc(CNC[C@@](O)(COCc2ccccc2)[C@@H]2CC[C@@H](C)C[C@H]2OCc2ccccc2)c1 — permeability (PAMPA-GI; phosphatidylcholine-cholesterol membrane; 500 µM, 4 h, pH 6.5, 37 °C, 5% DMSO): 24.5 ± 6.5 ×10⁻⁶ cm/s
[2H]C([2H])([2H])NC(=O)c1ccc(N2C(=S)N(c3ccc(C#N)c(C(F)(F)F)c3)C(=O)C2(C)C)cc1F — AUC (male human, plasma; oral, 160 mg, single dose, fasted): 759 µg·h/mL
N=C(N)NCCC[C@H](NC(=O)CON=C[C@H](F)[C@@H](O)[C@H](O)[C@H](O)CO)C(=O)NCC(=O)N[C@@H](CC(=O)O)C(=O)O [fluorine-18 labelled] — tissue ratio (nude mice, U-87 MG xenograft; intravenous, 0.5 h; baseline: tumour over muscle): 3.71 ± 1.49
CCCC[C@H](NC(=O)[C@H](CC(C)C)N(C)C(=O)CNC(=O)[C@@H](NC(=O)[C@H](Cc1ccccc1)NC(=O)[C@H](CCCCN)NC(=O)[C@@H](N)CC(=O)O)C(C)C)C(N)=O — time to below quantitation limit (rat, plasma; IV, 100 µg/kg): ≤ 6 min
Cc1ccc(/N=N/c2c(O)ccc3ccccc23)c(C)c1 — measured concentration (rat whole blood QC samples; 5.0 µg/L, 4 h, room temperature, short-term stability): 4.95 µg/L
CC(C)(O)c1ncc([S@](N)(=O)=NC(=O)Nc2c3c(cc4c2CCC4)CCC3)s1 — AUC(0-t) (human, plasma; oral, 100 mg, single dose, fed, healthy volunteers): 112 µg·h/mL
CN1CC[C@H](c2c(O)cc(O)c3c(=O)cc(/C=C/c4c(Cl)cccc4Cl)oc23)[C@H](O)C1 — dissolved drug (USP paddle dissolution; phosphate buffer, 0.25% SLS; 60 min, pH 6.8): 84%
N[C@@H](COc1ccccc1C(F)(F)F)c1ccccc1 — AUC (rat, plasma; intravenous, 5 mg/kg): 0.28 µg·h/mL
CC(C)(F)CC(NC(c1ccc(-c2ccc(S(C)(=O)=O)cc2)cc1)C(F)(F)F)C(=O)NCC#CBr (stereo not drawn) — cysteine adduct formation (LC-MS UV trace; aqueous buffer; concentration not given, 23 h, pH 8.0, 37 °C, together with: cysteine 10 mM): 66%
CC(C)c1cnc(-c2cc(Cl)ccc2F)cc1Nc1ccncc1C(=O)NC(CO)CO — patients with related SAE (refers to: anaemia; human patients; oral, dose not given, grade 2): 0%
CC12CC(c3ccc(S(C)(=O)=O)cc3)C3=C4CCC(=O)C=C4CCC3C1CCC2(O)C(F)(F)C(F)(F)F (stereo not drawn) — total recovery of radioactivity (human, urine and feces; oral, 5 mg, 21 days, [14C]-labelled, single dose; baseline: dose): 86.6 ± 2.81%
COc1cnc2cccc(N3CCc4c(cc(Cn5ccnc5)cc4-c4cn(C)nc4C(F)(F)F)C3=O)c2c1 — AUC ratio (CD-1 male mice, plasma; 50 mg/kg; baseline: intraperitoneal over oral): 1.5 fold
CCCC[C@H](NC(=O)[C@H](CCC(=O)O)NC(=O)CNC(=O)CN1CCN(CC(=O)O)CCN(CC(=O)O)CCN(CC(=O)O)CC1)C(=O)N[C@H]1CC(=O)NCCCC[C@@H](C(N)=O)NC(=O)[C@H](Cc2c[nH]c3ccccc23)NC(=O)[C@H](CCCNC(=N)N)NC(=O)[C@@H](Cc2ccccc2)NC(=O)[C@H](Cc2c[nH]cn2)NC1=O [indium-111 labelled] — urinary excretion (C57 mouse, female, B16/F1 melanoma, urine; intravenous, 0.037 MBq, 0.5 h): 83.56 ± 0.49%
COc1ccc2c(c1)c(CC(=O)Nc1nnc(CCCCc3ccc(NC(=O)Cc4cccc(OC(F)(F)F)c4)nn3)[se]1)cn2C — fraction in blood cells (ICR mouse, whole blood; 0.048 mg/mL, 0.033 h, 37 °C): 30%
CCCCNCC(=O)O — logP (shake flask; water; 24 h): -1.97
Cn1c(=O)oc2ccc(-c3ccc(CC(C#N)NC(=O)C4CNCCCO4)c(F)c3)cc21 (stereo not drawn) — subjects with TEAE (refers to: urinary occult blood positive; human; 40 mg single dose, fasted): 0%
Cc1ccc(OCC(=O)O)cc1 — t1/2 (Sprague-Dawley rat, male, plasma; oral, 100 mg/kg/day of parent drug, day 1, 90-day repeated dosing): 2.75 h
CN1CCC[C@]1(C)/C=C/S(=O)(=O)NC(=O)Nc1c2c(cc3c1CCC3)CCC2 — CL/F (human, plasma; oral, 250 mg single dose): 1.1 L/h
CC/C=C\C/C=C\C/C=C\C/C=C\C/C=C\CCCCOC(CC)C(=O)O (stereo not drawn) — tissue concentration (radioactivity, 14C-labelled; Wistar rat, male, whole blood; oral, 100 mg/kg, 1 h): 24.6 µg equivalents/g tissue
